Results collected from several papers.
Protocols differ between the studies behind these lines.
Cell line: OVCAR-3

With `CC(=O)OC[C@H]1O[C@@H](Sc2sc(C(=O)c3ccc(Br)cc3)c(N)c2-c2nc3ccccc3s2)[C@H](OC(C)=O)[C@@H](OC(C)=O)[C@@H]1OC(C)=O` the growth was 76.2% (SRB; 10 µM, 48 h; reference: untreated).
`COc1ccc(CC2COC(=O)C2Cc2ccc3c(c2)OCO3)cc1OC` (mixture of isomers) — result for viability: “decreased” (MTT; concentration not given, 72 h).
`CC(=O)O[C@H]1C(=O)[C@]2(C)[C@@H](OC(=O)[C@H](N)CSC3CC(=O)N(CCC(=O)Nc4ccc(-c5ccc(/N=N/c6ccc7c(S(=O)(=O)O)cc(S(=O)(=O)O)c(N)c7c6O)c(C)c5)cc4C)C3=O)C[C@H]3OC[C@@]3(OC(C)=O)[C@H]2[C@H](OC(=O)c2ccccc2)[C@]2(O)C[C@H](OC(=O)[C@H](O)[C@@H](NC(=O)c3ccccc3)c3ccccc3)C(C)=C1C2(C)C` (stereo partly shown) — result for “late apoptotic cells”: 36.5% (annexin V/PI flow cytometry; concentration not given, 24 h).
For `Cc1cc(C)c(N=[C](NCc2ccc(N)cc2)[AuH][Cl])c(C)c1`, the IC50 was > 100 µM (cell growth or viability).
`CC/C=C\C/C=C\C/C=C\C/C=C\C/C=C\C/C=C\CCC(=O)Nc1ccn(C2OC(CO)C(O)C2(F)F)c(=O)n1` (stereo not shown) gave a TGI of 23.5 µM (NCI60 screen).
For `CC(=O)OC[C@H]1O[C@@H](Sc2sc(C(=O)c3ccc(C)cc3)c(N)c2-c2nc3ccccc3s2)[C@H](OC(C)=O)[C@@H](OC(C)=O)[C@@H]1OC(C)=O`, the growth was 59.4% (SRB; 10 µM, 48 h; reference: untreated).
The IC50 of `Cc1cc(C)c([N+]#[C][Pd-]([Cl])([Cl])=[C](Nc2ccc(CN[C](Nc3c(C(C)C)cccc3C(C)C)=[Au][Cl])cc2)Nc2c(C)cc(C)cc2C)c(C)c1` is reported as > 100 µM (cell growth or viability).
The GI50 of `CC(=O)OCC1(O)C(Nc2cccc(C(C)=O)c2)C(N)C(NC(=O)N(C)C)(C(C)OC(C)=O)C1(C)O` (stereo not shown) is reported as 0.53 µM (cell growth or viability, SRB).
With `CC(Cc1ccc(Cl)cc1)=C(c1ccc(Cl)cc1)c1ccc(OCCN(C)C)cc1` the GI50 was 4.53 µM (cell growth or viability).
For `Cc1cc(C)c(N[C](NCc2cccc(N[C](Nc3c(C(C)C)cccc3C(C)C)=[Pd-]([Cl])([Cl])[C]#[N+]c3c(C(C)C)cccc3C(C)C)c2)=[Au][Cl])c(C)c1`, the IC50 was 80 µM (cell growth or viability).

Some of these lines once more:
With `CC(=O)OC[C@H]1O[C@@H](Sc2sc(C(=O)c3ccc(Br)cc3)c(N)c2-c2nc3ccccc3s2)[C@H](OC(C)=O)[C@@H](OC(C)=O)[C@@H]1OC(C)=O` the growth was 76.2% (SRB; 10 µM, 48 h; reference: untreated).
